Measured values pooled from the literature.
Parts stem from different laboratories: compare values within a part only.
Chain of UniProt Q02750 (whole entry, looked up): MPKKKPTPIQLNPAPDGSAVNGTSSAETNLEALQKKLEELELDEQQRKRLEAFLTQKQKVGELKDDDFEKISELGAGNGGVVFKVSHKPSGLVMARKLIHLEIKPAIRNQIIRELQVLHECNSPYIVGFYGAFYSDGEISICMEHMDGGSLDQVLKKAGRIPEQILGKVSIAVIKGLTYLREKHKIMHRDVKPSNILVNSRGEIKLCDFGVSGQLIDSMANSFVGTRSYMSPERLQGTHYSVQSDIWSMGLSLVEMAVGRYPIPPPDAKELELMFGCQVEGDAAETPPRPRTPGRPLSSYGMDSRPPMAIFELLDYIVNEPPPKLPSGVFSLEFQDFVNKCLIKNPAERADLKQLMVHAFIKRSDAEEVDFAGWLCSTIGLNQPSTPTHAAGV
Chain of UniProt P50750 (whole entry, looked up): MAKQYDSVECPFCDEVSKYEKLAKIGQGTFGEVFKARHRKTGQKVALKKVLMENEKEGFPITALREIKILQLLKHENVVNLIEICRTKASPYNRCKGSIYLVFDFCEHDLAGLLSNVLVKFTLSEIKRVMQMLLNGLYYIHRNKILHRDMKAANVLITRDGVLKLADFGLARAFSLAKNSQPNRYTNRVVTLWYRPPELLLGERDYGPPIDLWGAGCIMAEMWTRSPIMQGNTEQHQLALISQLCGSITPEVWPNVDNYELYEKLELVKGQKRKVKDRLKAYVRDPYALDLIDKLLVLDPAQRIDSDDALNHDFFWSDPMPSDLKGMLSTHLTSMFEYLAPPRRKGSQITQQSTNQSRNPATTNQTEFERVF
Chain of UniProt O75914 (whole entry, looked up): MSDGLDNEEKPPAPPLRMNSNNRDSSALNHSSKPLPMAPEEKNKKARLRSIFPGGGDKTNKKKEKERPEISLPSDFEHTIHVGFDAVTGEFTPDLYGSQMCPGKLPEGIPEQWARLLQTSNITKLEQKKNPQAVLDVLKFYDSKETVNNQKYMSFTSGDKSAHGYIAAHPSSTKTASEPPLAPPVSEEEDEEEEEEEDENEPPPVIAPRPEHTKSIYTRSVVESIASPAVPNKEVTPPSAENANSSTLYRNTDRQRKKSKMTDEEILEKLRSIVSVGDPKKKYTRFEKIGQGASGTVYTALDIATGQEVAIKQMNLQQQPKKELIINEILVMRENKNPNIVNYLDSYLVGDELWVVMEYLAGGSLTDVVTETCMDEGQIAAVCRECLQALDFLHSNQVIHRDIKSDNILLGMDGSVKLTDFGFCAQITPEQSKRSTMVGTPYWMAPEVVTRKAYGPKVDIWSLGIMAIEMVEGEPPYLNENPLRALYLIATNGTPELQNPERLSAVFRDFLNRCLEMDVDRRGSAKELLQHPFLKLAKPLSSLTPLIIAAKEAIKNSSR
Chain of UniProt Q16832 (whole entry, looked up): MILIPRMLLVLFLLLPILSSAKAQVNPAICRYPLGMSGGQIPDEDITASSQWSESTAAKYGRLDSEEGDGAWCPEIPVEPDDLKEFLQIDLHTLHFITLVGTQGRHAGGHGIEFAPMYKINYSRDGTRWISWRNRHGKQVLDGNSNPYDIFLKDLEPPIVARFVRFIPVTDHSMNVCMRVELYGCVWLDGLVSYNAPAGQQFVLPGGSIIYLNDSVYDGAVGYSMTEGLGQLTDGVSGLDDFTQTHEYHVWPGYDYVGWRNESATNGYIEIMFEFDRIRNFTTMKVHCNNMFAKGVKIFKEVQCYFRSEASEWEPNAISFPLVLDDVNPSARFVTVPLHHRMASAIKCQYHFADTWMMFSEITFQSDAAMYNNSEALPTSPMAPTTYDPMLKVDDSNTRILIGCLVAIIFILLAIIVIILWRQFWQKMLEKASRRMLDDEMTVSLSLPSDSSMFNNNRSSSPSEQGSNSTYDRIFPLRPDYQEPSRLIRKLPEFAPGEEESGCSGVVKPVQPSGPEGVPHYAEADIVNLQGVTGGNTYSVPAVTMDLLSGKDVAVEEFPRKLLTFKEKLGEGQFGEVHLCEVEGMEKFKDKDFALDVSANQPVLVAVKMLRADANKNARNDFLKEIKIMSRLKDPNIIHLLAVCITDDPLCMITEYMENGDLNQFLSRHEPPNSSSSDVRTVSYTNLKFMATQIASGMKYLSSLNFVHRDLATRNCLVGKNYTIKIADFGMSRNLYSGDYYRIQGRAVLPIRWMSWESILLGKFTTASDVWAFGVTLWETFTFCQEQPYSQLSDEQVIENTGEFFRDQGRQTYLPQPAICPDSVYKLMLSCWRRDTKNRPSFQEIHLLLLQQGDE
Chain of UniProt Q99720 (whole entry, looked up): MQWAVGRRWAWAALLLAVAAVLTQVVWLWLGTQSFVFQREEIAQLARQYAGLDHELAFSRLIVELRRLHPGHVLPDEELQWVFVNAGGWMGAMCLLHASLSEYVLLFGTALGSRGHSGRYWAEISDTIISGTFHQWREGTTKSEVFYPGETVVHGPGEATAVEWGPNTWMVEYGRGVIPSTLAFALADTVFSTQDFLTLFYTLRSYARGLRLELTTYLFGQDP
Chain of UniProt O75676 (whole entry, looked up): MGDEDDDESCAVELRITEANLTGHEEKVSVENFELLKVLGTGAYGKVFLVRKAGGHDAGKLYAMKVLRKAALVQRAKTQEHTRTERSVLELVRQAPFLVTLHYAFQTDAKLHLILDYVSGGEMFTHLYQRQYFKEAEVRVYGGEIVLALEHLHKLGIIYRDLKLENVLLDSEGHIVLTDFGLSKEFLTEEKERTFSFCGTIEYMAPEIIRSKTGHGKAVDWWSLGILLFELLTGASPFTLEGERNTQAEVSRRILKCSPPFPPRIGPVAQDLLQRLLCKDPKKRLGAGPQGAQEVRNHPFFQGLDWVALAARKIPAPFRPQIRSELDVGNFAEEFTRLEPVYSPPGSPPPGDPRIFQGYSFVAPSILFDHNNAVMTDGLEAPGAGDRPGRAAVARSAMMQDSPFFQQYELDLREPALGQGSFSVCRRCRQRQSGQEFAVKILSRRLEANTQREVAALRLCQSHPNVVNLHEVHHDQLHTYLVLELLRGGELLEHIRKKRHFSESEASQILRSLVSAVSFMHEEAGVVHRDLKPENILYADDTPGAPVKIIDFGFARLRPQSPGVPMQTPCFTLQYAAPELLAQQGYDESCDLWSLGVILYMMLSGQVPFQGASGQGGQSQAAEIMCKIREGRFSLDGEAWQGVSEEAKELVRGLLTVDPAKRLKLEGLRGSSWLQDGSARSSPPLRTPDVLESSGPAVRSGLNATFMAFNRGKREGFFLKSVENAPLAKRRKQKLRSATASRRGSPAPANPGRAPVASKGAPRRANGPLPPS
Chain of UniProt Q96L34 (whole entry, looked up): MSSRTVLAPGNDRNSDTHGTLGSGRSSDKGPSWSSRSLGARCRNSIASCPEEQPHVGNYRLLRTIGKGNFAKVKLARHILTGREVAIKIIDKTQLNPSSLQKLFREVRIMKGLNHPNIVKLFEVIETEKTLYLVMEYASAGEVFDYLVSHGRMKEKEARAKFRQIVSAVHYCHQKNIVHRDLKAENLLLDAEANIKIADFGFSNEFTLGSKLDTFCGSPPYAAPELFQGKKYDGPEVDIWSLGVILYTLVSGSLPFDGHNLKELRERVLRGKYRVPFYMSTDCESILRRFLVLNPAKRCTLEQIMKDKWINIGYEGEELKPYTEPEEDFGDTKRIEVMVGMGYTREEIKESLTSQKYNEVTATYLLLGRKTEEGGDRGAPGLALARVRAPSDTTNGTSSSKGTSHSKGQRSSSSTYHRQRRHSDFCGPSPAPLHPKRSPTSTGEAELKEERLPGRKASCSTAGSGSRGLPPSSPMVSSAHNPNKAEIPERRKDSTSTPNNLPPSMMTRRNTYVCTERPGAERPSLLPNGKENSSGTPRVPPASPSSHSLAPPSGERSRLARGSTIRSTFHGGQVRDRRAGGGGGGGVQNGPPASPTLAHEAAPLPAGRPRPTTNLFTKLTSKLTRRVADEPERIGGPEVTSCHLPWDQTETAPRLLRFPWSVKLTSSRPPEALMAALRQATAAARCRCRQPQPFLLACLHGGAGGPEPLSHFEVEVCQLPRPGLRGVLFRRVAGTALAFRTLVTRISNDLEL
Chain of UniProt P42681 (whole entry, looked up): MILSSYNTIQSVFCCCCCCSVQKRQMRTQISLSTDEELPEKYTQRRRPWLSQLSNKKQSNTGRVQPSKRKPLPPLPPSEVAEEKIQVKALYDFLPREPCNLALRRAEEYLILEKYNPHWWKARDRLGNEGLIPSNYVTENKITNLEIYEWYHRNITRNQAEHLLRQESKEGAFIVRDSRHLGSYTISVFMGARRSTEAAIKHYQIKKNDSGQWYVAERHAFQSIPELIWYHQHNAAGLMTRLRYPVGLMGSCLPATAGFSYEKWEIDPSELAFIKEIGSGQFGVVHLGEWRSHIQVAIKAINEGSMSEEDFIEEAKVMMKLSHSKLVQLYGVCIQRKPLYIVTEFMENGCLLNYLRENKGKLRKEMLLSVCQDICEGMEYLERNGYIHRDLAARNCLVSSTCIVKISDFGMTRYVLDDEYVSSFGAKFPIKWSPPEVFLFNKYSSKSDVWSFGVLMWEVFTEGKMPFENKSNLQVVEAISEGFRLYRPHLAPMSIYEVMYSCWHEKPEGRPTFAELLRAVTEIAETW

Sample 1
Structure (SMILES): O=C1NC(=O)c2c1c1c3ccccc3[nH]c1n1cncc21
Read-out: enzyme activity
Action: inhibitor
Tested at: 0.5 µM
Reference: control
target	remaining activity [%]
DCLK2 (Homo sapiens, UniProt Q8N568)	82.3
DDR2 (Homo sapiens, UniProt Q16832)	96.5
CLK4 (Homo sapiens, UniProt Q9HAZ1)	99
PNCK (Homo sapiens, UniProt Q6P2M8)	105
GRK4 (Homo sapiens, UniProt P32298)	101
TXK (Homo sapiens, UniProt P42681)	76.4
MARK4 (Homo sapiens, UniProt Q96L34)	26.8
CAMK4 (Homo sapiens, UniProt Q16566)	89.8
Cyclin-dependent kinase 9, with cyclin K (CDK9, Homo sapiens, UniProt P50750)	83.8
PAK3 (Homo sapiens, UniProt O75914)	100
MAP2K1 (Homo sapiens, UniProt Q02750)	102
RPS6KA4 (Homo sapiens, UniProt O75676)	61.3
CLK3 (Homo sapiens, UniProt P49761)	48.2

Sample 2
Organism: Sarcocystis neurona
Read-out: parasite activity
Tested at: 10 µM
Time: 96 h
SMILES	activity class
CN(C)CCCSc1ccccc1NC(=O)/C=C/c1ccccc1	inactive
Nc1nnc(-c2cccc(Cl)c2Cl)c(N)n1	inactive
COC(=O)Nc1nc2ccc(C(=O)c3ccccc3)cc2[nH]1	inactive
Oc1ncnc2[nH]ncc12	inactive
NNC(=O)c1ccncc1	inactive
CCc1nc(N)nc(N)c1-c1ccc(Cl)cc1	active
CCC(C)n1ncn(-c2ccc(N3CCN(c4ccc(OCC5COC(Cn6cncn6)(c6ccc(Cl)cc6Cl)O5)cc4)CC3)cc2)c1=O (centres unmarked)	inactive
Nc1cc(N2CCCCC2)nc(N)[n+]1[O-]	inactive
CCCC(CCC)C(=O)O	inactive

Sample 3
Organism: Plasmodium berghei
Action: inhibitor
Cell line: Huh-7
Strain: GFP-expressing, liver stage
Tested at: 10 µM
Time: 24 h
Reference: untreated control
SMILES	infection rate
CCCc1nc(C(C)(C)O)c(C(=O)OCc2oc(=O)oc2C)n1Cc1ccc(-c2ccccc2-c2nnn[nH]2)cc1	81.2%
CC(CN(C)C)CN1c2ccccc2CCc2ccccc21 (centres unmarked)	85%
CCOC(=O)C1=C[C@@H](OC(CC)CC)[C@H](NC(C)=O)[C@@H](N)C1	101%
c1ccc(CC2=NCCN2)cc1	104%
Cc1onc(-c2ccccc2)c1C(=O)N[C@@H]1C(=O)N2[C@@H]1SC(C)(C)[C@@H]2C(=O)O	98%
CC(C)CCCC(C)N (centres unmarked)	97.9%
CN(C)CCN(Cc1ccccc1)c1ccccn1	65%
CCCc1nc(C)c2c(O)nc(-c3cc(S(=O)(=O)N4CCN(CC)CC4)ccc3OCC)nn12	63.3%
COc1cc2nc(N3CCN(C(=O)C4CCCO4)CC3)nc(N)c2cc1OC (centres unmarked)	83.2%

Single results of other studies
DRD2: D(2) dopamine receptor (DRD2, Homo sapiens, UniProt P14416)
Chain of UniProt P14416 (whole entry, looked up): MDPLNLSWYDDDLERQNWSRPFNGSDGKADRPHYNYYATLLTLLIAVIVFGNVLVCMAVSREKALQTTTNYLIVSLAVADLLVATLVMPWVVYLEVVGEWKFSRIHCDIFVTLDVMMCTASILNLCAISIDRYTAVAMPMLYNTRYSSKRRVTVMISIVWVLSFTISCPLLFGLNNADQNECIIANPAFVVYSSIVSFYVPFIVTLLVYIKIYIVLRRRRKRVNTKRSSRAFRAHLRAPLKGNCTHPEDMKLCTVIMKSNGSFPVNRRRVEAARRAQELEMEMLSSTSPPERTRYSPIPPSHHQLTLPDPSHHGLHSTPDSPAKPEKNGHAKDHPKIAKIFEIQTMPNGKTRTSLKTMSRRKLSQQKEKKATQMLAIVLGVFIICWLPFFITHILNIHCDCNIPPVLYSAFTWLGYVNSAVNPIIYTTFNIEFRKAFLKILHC
SMILES	target	read-out	technique	tested at	endpoint	result
c1ccc(N2CCN(Cc3nc4ccccc4[nH]3)CC2)nc1	SIGMAR1 (Homo sapiens, UniProt Q99720)	binding	radioligand binding	–	Ki	1200 nM
N#CC1(c2ccccn2)CCN(Cc2cc(C(=O)N3CCCC3)c(=O)n3ccccc23)CC1	DRD2	ligand displacement	–	10 µM	inhibition	-5.66%
O=C(Nc1ccc(Oc2ccc(F)cc2)cc1)N1CCc2ncccc2[C@H]1c1ccc(F)cc1	DRD2	ligand displacement	–	10 µM	inhibition	-3.97%
CC1CCN(c2ccnc(NCc3cn(C)cn3)n2)CC1	DRD2	ligand displacement	–	10 µM	inhibition	4.96%

For quick reference, copied from above (sample 2):
SMILES	activity class
Oc1ncnc2[nH]ncc12	inactive
NNC(=O)c1ccncc1	inactive
CCc1nc(N)nc(N)c1-c1ccc(Cl)cc1	active
